# Assay results gathered from unrelated publications.
# A part holds a random share of what one study measured. Substitutions count along the parent as printed.

# Sample 1
# Target: CCND1, cyclin fold, Cln2 fusion (human)
# Technique: yeast growth competition, sequencing
# Sample: yeast
# Notes: weak parent motif
# Reference: not given
# Reading: higher = stronger binding
# Starting sequence: USP37 docking peptide (human); PSAKRSLGFLPQP
Variant,normalised enrichment score
PSAKRSLGFAPQP [L10A],-0.0134
ASAKRSLGFLPQP [P1A],0.0924
PSAKRALGFLPQP [S6A],0.365
PSAKRSLAFLPQP [G8A],0.117
PSAKRSLGFLPAP [Q12A],0.572
PSAKASLGFLPQP [R5A],-0.0636

# Sample 2
# Target: RNA binding protein fox-1 homolog 2, RRM domain, GST-SBP tag (RBFOX2, Homo sapiens, UniProt O43251-10, residues 100-194)
# Technique: RNA Bind-n-Seq
# Form: RNA
# Sample: in vitro
# Concentration: 365 nM
# Notes: natural RNA segment, single round, ends assumed
# Reference: no-protein control
# Reading: higher = stronger binding
# Shared flanks, not repeated: GGGAGUUCUACAGUCCGACGAUC … UGGAAUUCUCGGGUGCCAA
# Construct (chain): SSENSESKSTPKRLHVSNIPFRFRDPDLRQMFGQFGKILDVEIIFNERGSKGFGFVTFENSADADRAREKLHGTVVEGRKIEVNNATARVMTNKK
Strand,RBNS enrichment (R)
CUUAAUGGCAAAAUAAUUAUGGUAAAAUACAAGUCUCGUGUUUAUUAUUCCUUAAGAAGUCUGUGUUAUAUUACCACGGAACACCCAAUAAAGCAAAAUGUGGUUGUUUC,0.536
UUCAAAAGUGUGAAAUGUCUGAAGAUCAUAUUUUUUAUACAGGUAUUUCAAUUAAAUGUUUUGGUAUAUAAUGGAUAACUUCUGUUUAUUGGACUGGGGCCCUGGGUAGU,0.912
UGCCUCAGAUCAGCCUGCGACUGCAAGAUUCUUACUGCAGUAGAGAACUCUUUUUCUCCCUUGUACUUUUUUUUGACCUGGCAUCUUUUUAUAGGGAAAAAUGGCCUUUG,1.54
UCAGCCCUCCGGAGAGACUACCCUAGUCUUUCUGGGGUGUUUAUGUCCUCAGCUGAAGCCUGGCCUAGUUGCUGAGAGGGGCUGGGGAGAUGGGGCGGGAGGGCCAGACU,0.246
AGGCUUGCUGGCUGGUGAAAAAGAAAUACAUCCCUCCCUCCAUCACCAUGUGGGGAUGCAGGAAAUCCUGCAGGGGUUGUGUGGGAGGCAGAUAGAUGGUGGUAUGUUGG,1.4
CUUAACUUCCCUCUAUAGUCAGCAGAGGGGAUCCGAGGCCCAGUGCUGCCUGGAGAACUGAGAAUAGACCUCUGUUGUUGACCCUUCCUCAGGCUGGAGCCUGGGUGUUG,0.398
CAGUGAGCUGAGAUUGUGCUGCUGCACUCCAGCCUGGGAGACAGAGCGAGACUCUGUCUUAAAAAAAAAAAAAGGAGGUGAAUUUUUUUUUAAGUUUUGUAACACUGUCC,0.974
CCCUGGGUGGAUACUUGAACCAGAGAUCCCGACCCUGCUGCUCCAUCUCAGGAGGCAGCCUUCCUGACCAAGUGUGUUUGACAUGGAGCGCCCUGUGGUGCCCACCUCCA,0.343
CUUUAGAGGGUGCUGAGAUGGGGACUUGCAGGCUUGGAGCAAGAAAGGGUAGGAGUGCACAUAGGAUAAGACACAUUCCAAAAUCAGGGCCUCCCUGUUUUUUCCUACUC,0.496
CUGGAAUCAAUUGAAAUAAGAGGACUCAAGGUUUGUUCUAAUGAAGUUUGUCAAAUUACUCUUUGGAAUUGAGCCAAAAUCCUAGAGUUGAGUUUUUAUUCUUCCUUCCU,0.401
UACCGUGCUGUAUACCUAUCUACUUUUCUGGGCAGCUGAUGGAGCUCUGGAAGAAACACCAAAGCCUGCUGGAAAGGAAAGCGUUUGAAGAAAGAAUUGUCCUCCUGUAG,0.445
UUCGGCUGCCCAGCUCCGUGGAUAGACCUCCUCUGGGGGUGGUGCUGCUUGUAUGUUUACAUGAAAUUCUCCCAGGACAGACCACCAACCAUGGACACAGAGACCUUAGG,0.45

# Sample 3
# Target: Ras GTPase-activating protein-binding protein 1, full length (G3BP1, Homo sapiens, UniProt Q13283)
# Chain of UniProt Q13283 (whole entry, looked up): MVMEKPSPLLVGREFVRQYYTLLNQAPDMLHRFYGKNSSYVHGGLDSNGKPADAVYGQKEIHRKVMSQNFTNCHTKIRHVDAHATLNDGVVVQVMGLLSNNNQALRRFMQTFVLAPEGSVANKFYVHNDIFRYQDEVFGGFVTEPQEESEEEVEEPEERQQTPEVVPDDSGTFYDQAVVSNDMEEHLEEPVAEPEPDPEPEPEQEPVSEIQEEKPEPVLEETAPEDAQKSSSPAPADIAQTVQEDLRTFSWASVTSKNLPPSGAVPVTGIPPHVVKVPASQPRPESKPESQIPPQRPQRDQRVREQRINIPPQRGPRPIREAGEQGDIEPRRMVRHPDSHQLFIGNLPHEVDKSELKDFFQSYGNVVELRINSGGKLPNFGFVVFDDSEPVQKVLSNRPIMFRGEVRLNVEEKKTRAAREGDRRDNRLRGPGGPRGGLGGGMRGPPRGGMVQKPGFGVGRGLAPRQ
# Technique: RNA Bind-n-Seq
# Form: RNA
# Sample: in vitro
# Concentration: 200 nM
# Notes: whole 134-nt RNA, ends assumed
# Added: 150 mM KCl
# Reference: input library
# Reading: higher = stronger binding
# Shared flanks, not repeated: GGGAGUUCUACAGUCCGACGAUC … UGGAAUUCUCGGGUGUCAAGG
Strand,log2 enrichment
AACUGGAAGAACAGACCCGUAGGGCUCUGGAACUUGAGCAGGAACGGAAGCGUGCCCAGAGCGAGGCUGAAAAGCUGGCCAAGGAGCGUC,-0.875
CUCAAGUCCUGUGCUACACAUCGUAUGUACCGAAUCGGGGAAGGGAAGGAAGGGAAAGUAUUAUGUUACGCCGUUCGGAUCUGCACUUCC,0.21
AAGUCCUGUGCUACACAUCGUAUGUACCGAAUCGGUUUUUUUGGAGGUUUUUUUGGAAAGUAUUAUGUUACGCCGUUCGGAUCUGCACUU,-1.05
UAACUUUAGAGGAGGAUCUGAUGGAUAUGGCAGUGGACGUGGAUCUGGGGAUGGCUAUAAUGGGUAUGGAGGAGGACCUGGAGGUGGCAA,0.116
UCAAGUCCUGUGCUACACAUCGUAUGUACCGAAUCGGGGCCGGGCCGGGGCCGGGAAAGUAUUAUGUUACGCCGUUCGGAUCUGCACUUC,-0.152
GUCCUGUGCUACACAUCGUAUGUACCGAAUCGGUUUUUUGGUUUUUUGGGGUUUUUUGGAAAGUAUUAUGUUACGCCGUUCGGAUCUGCA,-0.902
CAAGUCCUGUGCUACACAUCGUAUGUACCGAAUCGGAAAAAGGUUUGGUUUUUGGAAAGUAUUAUGUUACGCCGUUCGGAUCUGCACUUC,-1.01
UGGUUCUGGCAUUUAUGACCCUUGUGAAAAAGAAGCCACUGAUGCUAUUGGGCAUCUAGACAGACAGCAACGGGAAGAUAUCACACAGAG,-0.539
UGGGAGGUGGAUUUUGUUUAUGUUUUUAGCUCAUUUCCAGGGGUGGGAAUUUUUUUUUAAUAUGUGUCAUGAAUAAAGUUGUUUUUGAAA,0.0477
UCAAGUCCUGUGCUACACAUCGUAUGUACCGAAUCGGGGAAAGGAAAGGAAAGGGAAAGUAUUAUGUUACGCCGUUCGGAUCUGCACUUC,-0.737
UGGCCCUGGUGGCAUGCGGGGAGGAAGAGGUGGCCUCAUGGAUCGUGGUGGUCCCGGUGGAAUGUUCAGAUGUGGCCGUGGUGGAGACAG,0.363
AGUCCUGUGCUACACAUCGUAUGUACCGAAUCAAAUUUUUAAACCCCCAAACCCAAAAAAGUAUUAUGUUACGCCGUUCGGAUCUGCACU,-0.418
AAGUCCUGUGCUACACAUCGUAUGUACCGAAUCGGGGAAAGGGGUUUGGGGAGGGGAAAGUAUUAUGUUACGCCGUUCGGAUCUGCACUU,0.855
CAAGUCCUGUGCUACACAUCGUAUGUACCGAAUCGGCCCGGCCCGGGGCCCGGGGAAAGUAUUAUGUUACGCCGUUCGGAUCUGCACUUC,-0.53

# Sample 4
# Target: PABPC1L2, full length, GST fusion (mouse, UniProt A0ABA7IW68)
# Technique: RNAcompete
# Form: RNA
# Sample: in vitro
# Concentration: 20 nM
# Notes: 7-mer, probes averaged, single round
# Reference: mean of 7-mers
# Reading: higher = stronger binding
# Residues (chain): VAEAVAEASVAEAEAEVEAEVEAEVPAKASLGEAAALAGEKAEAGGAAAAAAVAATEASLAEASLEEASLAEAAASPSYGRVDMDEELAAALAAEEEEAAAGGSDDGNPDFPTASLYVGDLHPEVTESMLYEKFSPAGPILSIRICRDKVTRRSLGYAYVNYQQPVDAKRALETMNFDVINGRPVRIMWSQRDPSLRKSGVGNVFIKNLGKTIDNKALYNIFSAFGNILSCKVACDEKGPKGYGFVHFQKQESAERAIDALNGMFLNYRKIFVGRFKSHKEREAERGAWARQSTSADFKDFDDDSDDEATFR
Strand,7-mer Z-score
UUGCUUG,-0.374
AAUCCAU,0.0515
ACUUCAU,-0.159
UAAUUAC,-0.22
CGAACAG,-0.0591
GUAACAA,0.178
ACUCCAC,-0.101
AUGUGAU,-0.161
AUUUAUA,0.24
AAGCGGG,0.642
UUGAAUU,-0.267
GUGCACU,-0.257
UAUAGCU,-0.117
UGAUGUU,-0.405
GGCCUAA,-0.00833

# Sample 5
# Target: ABI1, truncated, D143A, DHFR fusion (Arabidopsis thaliana)
# Technique: DHFR PCA, deep sequencing
# Sample: yeast
# Notes: methotrexate growth selection, single substitutions
# Added: (+)-ABA 17 µM
# Reference: wild-type fitted maximum
# Reading: higher = stronger binding
# Starting sequence: PYL1, truncated, DHFR fusion (Arabidopsis thaliana); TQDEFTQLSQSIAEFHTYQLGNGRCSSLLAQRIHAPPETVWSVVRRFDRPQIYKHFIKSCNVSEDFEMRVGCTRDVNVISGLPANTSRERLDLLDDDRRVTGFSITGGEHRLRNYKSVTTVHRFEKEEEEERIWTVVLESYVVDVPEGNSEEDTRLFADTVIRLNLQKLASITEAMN; partner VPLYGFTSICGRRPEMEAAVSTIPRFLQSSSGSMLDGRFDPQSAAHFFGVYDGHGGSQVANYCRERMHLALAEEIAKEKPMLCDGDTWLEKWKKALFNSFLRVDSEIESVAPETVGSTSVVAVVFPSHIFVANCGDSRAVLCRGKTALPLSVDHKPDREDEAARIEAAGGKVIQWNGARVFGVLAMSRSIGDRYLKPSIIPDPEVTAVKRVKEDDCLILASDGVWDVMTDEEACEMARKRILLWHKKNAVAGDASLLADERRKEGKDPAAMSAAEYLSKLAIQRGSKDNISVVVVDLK
Variant,relative binding score [%]
H34Y,80
V40G,-24.1
S11I,76.3
E151F,73.3
L8C,72.9
R132S,97.2
E125N,83
G23A,65.8
G71P,9.57
Q7P,76
H16R,0.384
P50A,8.34
G71I,-4.16
G81L,19.4
I57Q,15.2

# A few entries again (sample 3):
Strand,log2 enrichment
UAACUUUAGAGGAGGAUCUGAUGGAUAUGGCAGUGGACGUGGAUCUGGGGAUGGCUAUAAUGGGUAUGGAGGAGGACCUGGAGGUGGCAA,0.116
UCAAGUCCUGUGCUACACAUCGUAUGUACCGAAUCGGGGCCGGGCCGGGGCCGGGAAAGUAUUAUGUUACGCCGUUCGGAUCUGCACUUC,-0.152
GUCCUGUGCUACACAUCGUAUGUACCGAAUCGGUUUUUUGGUUUUUUGGGGUUUUUUGGAAAGUAUUAUGUUACGCCGUUCGGAUCUGCA,-0.902
CAAGUCCUGUGCUACACAUCGUAUGUACCGAAUCGGAAAAAGGUUUGGUUUUUGGAAAGUAUUAUGUUACGCCGUUCGGAUCUGCACUUC,-1.01
UGGUUCUGGCAUUUAUGACCCUUGUGAAAAAGAAGCCACUGAUGCUAUUGGGCAUCUAGACAGACAGCAACGGGAAGAUAUCACACAGAG,-0.539
UGGGAGGUGGAUUUUGUUUAUGUUUUUAGCUCAUUUCCAGGGGUGGGAAUUUUUUUUUAAUAUGUGUCAUGAAUAAAGUUGUUUUUGAAA,0.0477
UCAAGUCCUGUGCUACACAUCGUAUGUACCGAAUCGGGGAAAGGAAAGGAAAGGGAAAGUAUUAUGUUACGCCGUUCGGAUCUGCACUUC,-0.737
UGGCCCUGGUGGCAUGCGGGGAGGAAGAGGUGGCCUCAUGGAUCGUGGUGGUCCCGGUGGAAUGUUCAGAUGUGGCCGUGGUGGAGACAG,0.363
AGUCCUGUGCUACACAUCGUAUGUACCGAAUCAAAUUUUUAAACCCCCAAACCCAAAAAAGUAUUAUGUUACGCCGUUCGGAUCUGCACU,-0.418
